# Results pooled from the literature.
# Numbers after ± are the reported error.
Compound,tested on,assay,system,setting,how to read,quantity,value
C=CC(=O)Nc1cccc(Cn2ncc3cnc(Nc4cnn(CCOC)c4)nc32)c1,FYN human,"binding, KINOMEscan",,100 nM,lower = stronger binding,percent of control,100%
CN1CCCNC(=O)c2cccc(c2)C(=O)NCCCN(C)CCCNc2cccc3c2C(=O)c2cccc(c2C3=O)NCCC1,SAS,"RNA-seq, item: KMT2E-AS1 mRNA",,"1 µM, 6 h",baseline: untreated cells,log2 fold change,-1.08
C[n+]1ccc(/C=N/NC(=O)c2cccc(C(=O)N/N=C/c3cc[n+](C)cc3)n2)cc1,MYC parallel G4 DNA,FRET melting,,"1 µM, DNA 0.2 µM, with: duplex DNA competitor 10 µM",,ΔTm,2.8 ± 0.4 °C
CCc1nnc(NC(=O)c2cccc(C(=O)Nc3nnc(CC)s3)n2)s1,Mus musculus,"gene silencing, high-content imaging",LDR reporter GFP cells,"30 h, confirmation, mean of two runs",,Emax,96%
C[n+]1ccc(/C=N/NC(=O)c2cccc(C(=O)N/N=C/c3cc[n+](C)c4ccccc34)n2)c2ccccc21,MYC parallel G4 DNA,FRET melting,,"1 µM, DNA 0.2 µM, with: duplex DNA competitor 10 µM",,ΔTm,13.7 ± 0.5 °C
CNS(=O)(=O)Nc1nccc(Cc2c(C)c3ccc(Oc4ncccc4F)cc3oc2=O)c1F,SW1417,cell viability,,7 days,,IC50,0.00465 µM
C[n+]1cc(/C=N/NC(=O)c2cccc(C(=O)N/N=C/c3cc4ccccc4[n+](C)c3)n2)cc2ccccc21,MYC parallel G4 DNA,FRET melting,,"1 µM, DNA 0.2 µM, with: duplex DNA competitor 10 µM",,ΔTm,6.1 ± 0.6 °C
C=CC(=O)N1[C@@H](c2ccc3c(c2)OCO3)c2[nH]c3ccccc3c2C[C@H]1C(=O)N1CCN(C)CC1,human cyclin E1 N112C-3xFLAG:CDK2,"co-IP with TMT proteomics, item: SNRNP200",,"concentration not given, O75643",baseline: wild type DMSO,relative co-enrichment,152%
Nc1ncc(-c2cc(-c3cnn(CC(F)(F)F)c3)ncc2F)nc1C(=O)NC1CNCC(F)C1 (stereo not drawn),YANK1,KINOMEscan,,1 µM,baseline: DMSO control,remaining binding,100%
Cc1ncsc1-c1ccc(C(C)NC(=O)C2CC(O)CN2C(=O)C(NC(=O)CCCCCCCCCCN2CCCC(Nc3ncc(Cl)c(Nc4ccccc4S(=O)(=O)C(C)C)n3)C2)C(C)(C)C)cc1 (stereo not drawn),22Rv1,"RNA-seq, item: PHLDB1 mRNA",,concentration not given,baseline: DMSO,log2 fold change,-1.4
C[n+]1cc(/C=N/NC(=O)c2ccc3ccc(C(=O)N/N=C/c4cc5ccccc5[n+](C)c4)nc3n2)cc2ccccc21,hp2 hairpin duplex DNA,FRET melting,,1 µM,,ΔTm,1.3 ± 0.2 °C
CC(C)(C)c1cc(-c2ccc3cccnc3n2)nc(-c2ccc3cccnc3n2)c1.[Cl-].[Cl-].[Ru+2].c1cnc2c(c1)ccc1cccnc12,A-375,,,visible light 100 J/cm2,baseline: dark EC50 over light EC50,phototherapeutic index,3
CCC(=O)N1CCN(c2ccc(NC(=O)c3ccc([N+](=O)[O-])o3)cc2Cl)CC1,Mus musculus,"gene silencing, high-content imaging",LDR reporter GFP cells,"30 h, retest run 2",,Emax,31%
COC1OC(C)C(OS(=O)(=O)O)C(OC2OC(C)C(OS(=O)(=O)O)C(OC3OC(C)C(OS(=O)(=O)O)C(OC4OC(C)C(OS(=O)(=O)O)C(OC5OC(C)C(OS(=O)(=O)O)C(OC6OC(C)C(OS(=O)(=O)O)C(OC7OC(C)C(OS(=O)(=O)O)C(OC8OC(C)C(OS(=O)(=O)O)C(OC9OC(C)C(OS(=O)(=O)O)C(OS(=O)(=O)O)C9O)C8O)C7O)C6O)C5O)C4O)C3O)C2O)C1O (stereo not drawn),,,human plasma,128 µg/mL,baseline: control,prothrombin time prolongation,1.01 fold
Oc1c(/N=N/c2ccccn2)ccc2ccccc12,Mus musculus,"gene silencing, high-content imaging",LDR reporter GFP cells,"30 h, retest, mean of two runs",,Emax,128%
C[n+]1cccc2cc(/C=N/NC(=O)c3cc(C(=O)N/N=C/c4ccc5c(ccc[n+]5C)c4)ncn3)ccc21,MYC parallel G4 DNA,FRET melting,,"1 µM, DNA 0.2 µM",,ΔTm,2.2 ± 1.3 °C
COc1ccc2c(C)nc(Nc3nc(O)cc(-c4ccccc4)n3)nc2c1,Mus musculus,"gene silencing, high-content imaging",LDR reporter GFP cells,"retest, mean of two runs",,EC50,6.31 µM
COC1OC(C)C(OC2OC(C)C(OS(=O)(=O)O)C(OC3OC(C)C(OC4OC(C)C(OS(=O)(=O)O)C(OC5OC(C)C(OC6OC(C)C(OS(=O)(=O)O)C(OC7OC(C)C(OC8OC(C)C(OS(=O)(=O)O)C(OC9OC(C)C(OC%10OC(C)C(OS(=O)(=O)O)C(OC%11OC(C)C(OS(=O)(=O)O)C(OS(=O)(=O)O)C%11O)C%10O)C(OS(=O)(=O)O)C9O)C8O)C(OS(=O)(=O)O)C7O)C6O)C(OS(=O)(=O)O)C5O)C4O)C(OS(=O)(=O)O)C3O)C2O)C(OS(=O)(=O)O)C1O (stereo not drawn),,,human plasma,128 µg/mL,,prothrombin time,14.8 ± 0.4 s
COC1CN([C@H]2CC[C@H]([C@@]3(C)Oc4c(Cl)cc(C(=O)NCc5c(SC)cc(C)[nH]c5=O)c(C)c4O3)CC2)C1,,"RNA-seq, item: STAB2 mouse homolog","mouse, HT-1376 xenograft, whole blood",dose not given,baseline: vehicle,log2 fold change,2.48
CC1=C/C(=N\N=C(/S)Nc2cccnc2)CC(C)(C)C1,Mus musculus,"gene silencing, high-content imaging",LDR reporter GFP cells,retest run 2,,AC50,31.6 µM
C[n+]1ccc(/C=N/NC(=O)c2ccc3ccc4ccc(C(=O)N/N=C/c5cc[n+](C)c6ccccc56)nc4c3n2)c2ccccc21,hp2 hairpin duplex DNA,FRET melting,,1 µM,,ΔTm,-0.3 ± 2.3 °C
CC(C)(C)NCC(SS(=O)(=O)O)c1ccccc1 (stereo not drawn),,,"Swiss Webster mice, Schistosoma mansoni-infected","600 mg/kg single dose on day 7 post-infection, perfusion day 44 post-infection",,spleen weight,0.33 g
O=C(N/N=C/c1cc[n+](CC2CC2)c2ccccc12)c1ccc2ccc3ccc(C(=O)N/N=C/c4cc[n+](CC5CC5)c5ccccc45)nc3c2n1,hp2 hairpin duplex DNA,FRET melting,,1 µM,,ΔTm,2.2 ± 0.4 °C
COC1OC(C)C(OC2OC(C)C(OS(=O)(=O)O)C(OS(=O)(=O)O)C2OS(=O)(=O)O)C(OS(=O)(=O)O)C1OS(=O)(=O)O (stereo not drawn),,,human plasma,128 µg/mL,baseline: control,prothrombin time prolongation,1.03 fold
O=C(NN1C(=O)c2ccccc2NC1c1ccc([N+](=O)[O-])o1)c1ccc([N+](=O)[O-])cc1 (stereo not drawn),Mus musculus,"gene silencing, high-content imaging",LDR reporter GFP cells,"retest, mean of two runs",,EC50,39.8 µM
C=C(NC(=O)c1csc(-c2nc3c(cc2O)-c2nc(cs2)C(=O)NC(C(C)O)C(=O)NC(=C(C)OC)c2nc(cs2)C(=O)NC2c4nc(cs4)C(=O)NC(COC(=O)c4c5c6c(cccc6n4O)COC(=O)C(OC4CC(C)(O)C(N(C)C)C(C)O4)C2OC5)c2nc-3cs2)n1)C(N)=O (stereo not drawn),Enterococcus faecalis,,"vancomycin-intermediate, 10 isolates",pH 7.0,,MIC50,0.0312 µg/mL
COc1nc(Nc2nc(O)c3ccccc3n2)nc2ccc(C)cc12,Mus musculus,"gene silencing, high-content imaging",LDR reporter GFP cells,"30 h, confirmation, mean of two runs",,Emax,39%
O=C(N/N=C/c1cc[n+](Cc2ccccc2)c2ccccc12)c1cc(C(=O)N/N=C/c2cc[n+](Cc3ccccc3)c3ccccc23)ncn1,hp2 hairpin duplex DNA,FRET melting,,1 µM,,ΔTm,1.4 ± 0.5 °C
N=C(S)N/N=C/c1ncc(C(F)(F)F)cc1Cl,Mus musculus,"gene silencing, high-content imaging",LDR reporter GFP cells,"30 h, confirmation, mean of two runs",,Emax,42%
COC1OC(C)C(OC2OC(C)C(O)C(OC3OC(C)C(OC4OC(C)C(O)C(OC5OC(C)C(OC6OC(C)C(O)C(OC7OC(C)C(OC8OC(C)C(O)C(OC9OC(C)C(OC%10OC(C)C(O)C(OC%11OC(C)C(OC%12OC(C)C(O)C(OS(=O)(=O)O)C%12OS(=O)(=O)O)C(OS(=O)(=O)O)C%11OS(=O)(=O)O)C%10OS(=O)(=O)O)C(OS(=O)(=O)O)C9OS(=O)(=O)O)C8OS(=O)(=O)O)C(OS(=O)(=O)O)C7OS(=O)(=O)O)C6OS(=O)(=O)O)C(OS(=O)(=O)O)C5OS(=O)(=O)O)C4OS(=O)(=O)O)C(OS(=O)(=O)O)C3OS(=O)(=O)O)C2OS(=O)(=O)O)C(OS(=O)(=O)O)C1OS(=O)(=O)O (stereo not drawn),,,human plasma,128 µg/mL,baseline: control,prothrombin time prolongation,0.97 fold

# For quick reference, copied from above:
Compound,tested on,assay,system,setting,how to read,quantity,value
C[n+]1ccc(/C=N/NC(=O)c2ccc3ccc4ccc(C(=O)N/N=C/c5cc[n+](C)c6ccccc56)nc4c3n2)c2ccccc21,hp2 hairpin duplex DNA,FRET melting,,1 µM,,ΔTm,-0.3 ± 2.3 °C
CC1=C/C(=N\N=C(/S)Nc2cccnc2)CC(C)(C)C1,Mus musculus,"gene silencing, high-content imaging",LDR reporter GFP cells,retest run 2,,AC50,31.6 µM
C[n+]1ccc(/C=N/NC(=O)c2cccc(C(=O)N/N=C/c3cc[n+](C)cc3)n2)cc1,MYC parallel G4 DNA,FRET melting,,"1 µM, DNA 0.2 µM, with: duplex DNA competitor 10 µM",,ΔTm,2.8 ± 0.4 °C
O=C(N/N=C/c1cc[n+](Cc2ccccc2)c2ccccc12)c1cc(C(=O)N/N=C/c2cc[n+](Cc3ccccc3)c3ccccc23)ncn1,hp2 hairpin duplex DNA,FRET melting,,1 µM,,ΔTm,1.4 ± 0.5 °C
